# Measurements of several laboratories.
# Lines come from different studies, so protocols differ. “And” joins repeats or separate records; there may be more than shown. Numbers after ± are the reported error.
# BCHE: Cholinesterase (BCHE, Homo sapiens, UniProt P06276)
# UniProt P06873, sequence (whole entry, looked up): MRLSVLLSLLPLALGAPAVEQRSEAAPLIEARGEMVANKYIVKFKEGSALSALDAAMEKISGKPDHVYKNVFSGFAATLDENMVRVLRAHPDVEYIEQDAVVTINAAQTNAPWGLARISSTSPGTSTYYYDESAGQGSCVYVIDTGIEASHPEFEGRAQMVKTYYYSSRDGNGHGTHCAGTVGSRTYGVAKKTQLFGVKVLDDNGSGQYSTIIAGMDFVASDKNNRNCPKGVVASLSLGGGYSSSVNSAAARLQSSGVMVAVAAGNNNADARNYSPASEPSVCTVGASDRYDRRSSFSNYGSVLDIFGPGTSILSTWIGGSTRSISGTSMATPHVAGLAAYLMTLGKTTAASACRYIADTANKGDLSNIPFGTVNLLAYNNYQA
# UniProt P06276, sequence (whole entry, looked up): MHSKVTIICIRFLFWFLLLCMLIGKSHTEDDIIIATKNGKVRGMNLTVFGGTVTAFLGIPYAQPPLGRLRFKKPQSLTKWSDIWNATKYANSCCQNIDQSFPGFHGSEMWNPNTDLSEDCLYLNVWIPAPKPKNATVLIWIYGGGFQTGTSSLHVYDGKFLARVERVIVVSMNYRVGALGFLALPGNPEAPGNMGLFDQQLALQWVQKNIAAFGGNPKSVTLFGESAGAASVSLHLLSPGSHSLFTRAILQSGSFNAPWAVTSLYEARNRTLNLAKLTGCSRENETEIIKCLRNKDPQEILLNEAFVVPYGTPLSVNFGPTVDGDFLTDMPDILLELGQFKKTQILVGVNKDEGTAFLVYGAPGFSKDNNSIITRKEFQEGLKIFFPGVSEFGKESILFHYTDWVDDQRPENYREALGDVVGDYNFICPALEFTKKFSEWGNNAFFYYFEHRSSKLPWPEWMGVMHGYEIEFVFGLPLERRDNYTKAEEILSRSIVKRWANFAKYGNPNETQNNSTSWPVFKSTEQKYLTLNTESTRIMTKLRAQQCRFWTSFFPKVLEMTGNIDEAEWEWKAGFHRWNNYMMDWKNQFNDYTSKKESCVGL
# UniProt Q9HAW8, sequence (whole entry, looked up): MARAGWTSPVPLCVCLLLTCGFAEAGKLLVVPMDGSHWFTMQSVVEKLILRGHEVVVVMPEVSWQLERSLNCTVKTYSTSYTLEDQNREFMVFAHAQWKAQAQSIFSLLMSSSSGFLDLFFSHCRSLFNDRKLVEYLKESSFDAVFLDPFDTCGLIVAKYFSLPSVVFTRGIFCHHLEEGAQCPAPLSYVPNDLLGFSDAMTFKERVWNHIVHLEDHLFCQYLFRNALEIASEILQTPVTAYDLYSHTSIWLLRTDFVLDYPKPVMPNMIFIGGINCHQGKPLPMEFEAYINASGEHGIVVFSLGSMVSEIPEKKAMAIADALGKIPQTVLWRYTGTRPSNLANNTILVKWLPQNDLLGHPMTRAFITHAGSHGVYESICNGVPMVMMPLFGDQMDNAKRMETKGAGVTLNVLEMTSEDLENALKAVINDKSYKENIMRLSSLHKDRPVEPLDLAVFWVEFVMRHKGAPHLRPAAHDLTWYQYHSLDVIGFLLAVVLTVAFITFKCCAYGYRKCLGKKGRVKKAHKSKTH
# UniProt P08183, sequence (whole entry, looked up): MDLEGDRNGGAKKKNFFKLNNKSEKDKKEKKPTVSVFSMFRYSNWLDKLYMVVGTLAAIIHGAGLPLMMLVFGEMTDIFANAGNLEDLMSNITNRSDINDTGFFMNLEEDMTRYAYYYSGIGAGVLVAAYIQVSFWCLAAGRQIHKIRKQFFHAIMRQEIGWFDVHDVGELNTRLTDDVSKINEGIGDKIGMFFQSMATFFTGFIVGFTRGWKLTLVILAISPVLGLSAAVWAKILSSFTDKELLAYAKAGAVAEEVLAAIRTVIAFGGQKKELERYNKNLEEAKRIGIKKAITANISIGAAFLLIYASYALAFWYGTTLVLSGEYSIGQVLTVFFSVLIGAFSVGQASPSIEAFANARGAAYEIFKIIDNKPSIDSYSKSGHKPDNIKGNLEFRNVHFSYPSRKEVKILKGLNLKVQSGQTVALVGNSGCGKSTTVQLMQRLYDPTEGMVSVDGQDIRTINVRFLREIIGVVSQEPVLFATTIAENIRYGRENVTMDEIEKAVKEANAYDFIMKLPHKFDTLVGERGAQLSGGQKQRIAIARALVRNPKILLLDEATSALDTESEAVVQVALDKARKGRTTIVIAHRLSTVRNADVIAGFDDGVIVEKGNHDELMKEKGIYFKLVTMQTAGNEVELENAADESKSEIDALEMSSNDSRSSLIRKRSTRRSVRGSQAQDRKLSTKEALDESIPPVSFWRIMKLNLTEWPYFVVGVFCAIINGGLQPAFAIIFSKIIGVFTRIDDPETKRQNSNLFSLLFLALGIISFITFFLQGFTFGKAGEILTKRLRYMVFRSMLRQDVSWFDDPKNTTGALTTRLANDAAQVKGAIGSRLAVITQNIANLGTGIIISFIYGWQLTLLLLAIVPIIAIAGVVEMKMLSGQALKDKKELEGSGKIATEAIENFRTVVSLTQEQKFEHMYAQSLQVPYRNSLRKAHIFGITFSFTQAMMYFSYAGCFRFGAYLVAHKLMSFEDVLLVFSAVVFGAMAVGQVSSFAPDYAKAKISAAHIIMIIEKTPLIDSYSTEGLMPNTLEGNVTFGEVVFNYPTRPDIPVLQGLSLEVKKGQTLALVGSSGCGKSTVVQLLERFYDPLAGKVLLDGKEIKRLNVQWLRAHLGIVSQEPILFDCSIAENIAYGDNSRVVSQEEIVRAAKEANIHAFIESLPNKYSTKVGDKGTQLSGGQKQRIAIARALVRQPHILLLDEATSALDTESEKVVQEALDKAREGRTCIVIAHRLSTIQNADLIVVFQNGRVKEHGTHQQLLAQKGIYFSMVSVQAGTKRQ
SMILES,tested on,assay,test system,conditions,how to read,quantity,result
CO[C@H]1C[C@@H]2CC[C@@H](C)[C@@](O)(O2)C(=O)C(=O)N2CCCC[C@H]2C(=O)O[C@H]([C@H](C)C[C@@H]2CC[C@@H](OC(=O)NCCOCCOCCOCCOCCOCCOCCOCCOCCC(=O)N3CCc4cc(Cn5nc(-c6ccc7oc(N)nc7c6)c6c(N)ncnc65)ccc4C3)[C@H](OC)C2)C[C@@H](O)[C@H](C)/C=C(\C)[C@@H](O)[C@@H](OC)C(=O)[C@H](C)C[C@H](C)/C=C/C=C/C=C/1C,,dose-escalation trial,patients with advanced solid tumours,"intravenous, 1.6 mg/3 mg weekly, any grade",,maculopapular rash TEAE incidence,0%
O=S(=O)(c1ccc(O)cc1)c1ccc(O)cc1,"HepG2 spheroids, dissociated",annexin V-FITC/PI flow cytometry,,"10 µM, 24 h",,early apoptotic cells,16.8 ± 1.48%
O=c1ccc2ccccc2o1,HepG2,refers to: HIF1alpha,,"concentration not given, 24 h, inflammation and pH panel",,probability of response,37.5%
O=C(NCCCNc1nc(Nc2cccc(CN3CCOCC3)c2)ncc1C1CC1)C1CCC1,BCHE,inhibitor,,,,IC50,3.31 ± 0.22 µM
Cc1cc(C(=O)NC(C)(C)COc2cccc3c2C(N)=NS(=O)(=O)N3)cc(C)n1,Escherichia coli,"Ames test, confirmatory",WP2 uvrA,3333 µg/plate,reference: solvent control,revertant ratio,0.8
O=C1c2c(O)c(=O)ccn2N([C@@H]2c3ccccc3SCc3c2ccc(F)c3F)[C@@H]2COCCN12,,,"BALB/c mice, plasma","oral, 15 mg/kg baloxavir marboxil, 12 h",,plasma concentration,6.85 ng/mL
CC(C)CC(=O)OC[C@H]1O[C@@](C#N)(c2ccc3c(N)ncnn23)[C@H](O)[C@@H]1O,"ATP-dependent translocase ABCB1 (ABCB1, Homo sapiens, UniProt P08183)",basolateral to apical transport,Caco-2,"0.9 µM, 2 h",,recovery,76.2%
OCc1ncc2n1-c1ccc(Cl)cc1C(c1ccccc1F)=NC2,CYP3A4,substrate,"human, plasma","oral, 2 mg midazolam, day 14, cocktail with binimetinib and encorafenib",,Cmax,56.7 ng/mL
CC(=O)N1CCC(C(=O)N2CCN3C(=O)c4cc(-c5ccccc5)ccc4NC(=O)C3C2)CC1 (stereo not drawn),Escherichia coli,,WP2 uvrA,"500 µg/plate, with rat liver S9",,revertants per plate,38
O=C(O)c1cn(Cc2ccc(F)cc2)c2ccccc12,"UDP-glucuronosyltransferase 1A10 (UGT1A10, Homo sapiens, UniProt Q9HAW8)","substrate, recombinant His-tagged enzyme",,"50 µM, 60 min",,glucuronidation rate,3.3 ± 0.4 nmol/min/mg
Nc1c2c(nc3ccccc13)CCCC2O (stereo not drawn),BCHE,inhibitor,,with Triton,,IC50,1.22 ± 0.14 µM
[Cl-].[Cl-].[Pt+2].[Ru+2].c1ccc(-c2nc3cc4ccccc4cc3nc2-c2ccccn2)nc1.c1cnc2c(c1)ccc1cccnc12.c1cnc2c(c1)ccc1cccnc12,Danio rerio,,embryos,"90 µM, 0 h",,survival rate,100%
CC(C)C[C@H](NC(=O)[C@H](C)NC(=O)[C@@H](NC(=O)[C@H](CCCNC(=N)N)NC(=O)[C@H](CC(C)C)NC(=O)[C@H](Cc1c[nH]c2ccccc12)NC(=O)[C@@H]1CCCN1C(=O)[C@@H](N)CCCCN)C(C)C)C(=O)N[C@@H](CS)C(=O)N1CCC[C@H]1C(=O)NCC(=O)O,H9c2,WST-1,,"32 µM, 24 h",,viability,98.5% and 101% and 111%
Nc1ncnc2c([C@@H]3N[C@H](CO)[C@@H](O)[C@H]3O)c[nH]c12,HeLa,,,0.8 µM,,cell number,4370 and 5520
Cc1cc(C(C)(C)c2ccc(O)c(C)c2)ccc1O,"HepG2 spheroids, dissociated",annexin V-FITC/PI flow cytometry,,"10 µM, 24 h",,viable cells,69 ± 8.66%
CC1(C)[C@H](C=C(Cl)Cl)[C@H]1C(=O)OCc1cccc(Oc2ccccc2)c1,human cytosolic CES1,IVIVE from expressed enzymes,"human, 6 months old, expressed human CES1",0.1 µM,reference: total hepatic CLint in vivo,relative enzyme contribution,30%
COc1cccc(-c2n[nH]c(SCc3ccccn3)n2)c1OC,Salmonella typhimurium,"Ames test, preincubation",TA100,"0.25 mg/plate, with rat liver S9",,revertant colonies per plate,141
C[N+](C)(CCCCCC[N+](C)(C)CCCN1C(=O)c2cccc3cccc(c23)C1=O)CCCN1C(=O)c2cccc3cccc(c23)C1=O,Plasmodium falciparum,,3D7,,,IC50,0.1 µM
CCCC[C@H](NC(C)=O)C(=O)N[C@@H](CO)C(=O)N[C@H](C(=O)N1CCC[C@H]1C(=O)N[C@@H](C)C(=O)N[C@@H](CCCNC(=N)N)C(=O)N[C@@H](CCCNC(=N)N)C(=O)N[C@@H](CCCNC(=N)N)C(=O)N[C@@H](CC(C)C)C(=O)N[C@@H](CCCC)C(=O)N[C@@H](CCCNC(=N)N)C(=O)N[C@@H](CC(=O)O)C(=O)N[C@@H](Cc1ccccc1)C(=O)N[C@@H](CCCCN)C(=O)N[C@@H](CCCNC(=N)N)C(=O)N[C@@H](CC(C)C)C(=O)N[C@@H](CCC(N)=O)C(N)=O)[C@@H](C)O,"Proteinase K (PROK, Engyodontium album, UniProt P06873)","substrate, LC-MS",,"25 µM, 61.4 min, pH 7.4",,remaining intact peptide,7.5% and 10%
COc1cc2c(Oc3ccc4[nH]c(C)cc4c3F)ccnc2cc1OCC1(N)CC1,,refers to: grade 1 or 2 bone pain,paediatric high-risk refractory sarcoma,whole group,,incidence of adverse event,8.8%
OC(CCN1CCCCC1)(c1ccccc1)C1CCCCC1 (stereo not drawn),Plasmodium falciparum,,7G8,,,IC50,5.01 µM

# A few entries again:
SMILES,tested on,assay,test system,conditions,how to read,quantity,result
CC(C)C[C@H](NC(=O)[C@H](C)NC(=O)[C@@H](NC(=O)[C@H](CCCNC(=N)N)NC(=O)[C@H](CC(C)C)NC(=O)[C@H](Cc1c[nH]c2ccccc12)NC(=O)[C@@H]1CCCN1C(=O)[C@@H](N)CCCCN)C(C)C)C(=O)N[C@@H](CS)C(=O)N1CCC[C@H]1C(=O)NCC(=O)O,H9c2,WST-1,,"32 µM, 24 h",,viability,98.5% and 101% and 111%
